# Published values collected from several papers.
# Lines come from different studies, so protocols differ. Values joined by “and” are separate records of one study, mostly repeats; a detail may differ. Numbers after ± are the reported error.
# Chain of UniProt P08263 (whole entry, looked up): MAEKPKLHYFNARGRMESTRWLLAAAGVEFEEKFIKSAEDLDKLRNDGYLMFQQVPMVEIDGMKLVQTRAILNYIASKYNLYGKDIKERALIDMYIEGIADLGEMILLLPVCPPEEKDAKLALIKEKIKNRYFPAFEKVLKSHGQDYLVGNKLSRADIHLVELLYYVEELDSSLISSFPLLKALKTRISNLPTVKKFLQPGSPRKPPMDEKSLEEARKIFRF
# Chain of UniProt P51659 (whole entry, looked up): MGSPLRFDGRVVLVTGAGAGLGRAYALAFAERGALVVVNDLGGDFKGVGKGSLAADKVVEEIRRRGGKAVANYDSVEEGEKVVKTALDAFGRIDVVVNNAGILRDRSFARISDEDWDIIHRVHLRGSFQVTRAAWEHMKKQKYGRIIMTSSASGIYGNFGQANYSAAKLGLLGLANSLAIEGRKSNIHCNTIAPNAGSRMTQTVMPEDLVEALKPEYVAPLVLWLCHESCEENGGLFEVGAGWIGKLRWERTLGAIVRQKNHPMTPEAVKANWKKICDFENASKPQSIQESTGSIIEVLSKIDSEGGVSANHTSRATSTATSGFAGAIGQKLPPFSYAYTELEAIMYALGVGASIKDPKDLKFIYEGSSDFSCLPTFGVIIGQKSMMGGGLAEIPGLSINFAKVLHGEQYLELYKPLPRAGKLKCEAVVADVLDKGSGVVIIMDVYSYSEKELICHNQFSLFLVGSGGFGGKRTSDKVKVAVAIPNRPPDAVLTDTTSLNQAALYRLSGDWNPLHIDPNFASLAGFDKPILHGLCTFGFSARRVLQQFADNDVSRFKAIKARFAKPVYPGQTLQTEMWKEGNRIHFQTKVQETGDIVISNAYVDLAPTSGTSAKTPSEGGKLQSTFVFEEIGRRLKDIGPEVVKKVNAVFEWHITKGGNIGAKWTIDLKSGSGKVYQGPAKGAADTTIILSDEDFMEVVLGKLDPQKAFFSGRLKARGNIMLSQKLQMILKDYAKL
# Chain of UniProt O70528 (whole entry, looked up): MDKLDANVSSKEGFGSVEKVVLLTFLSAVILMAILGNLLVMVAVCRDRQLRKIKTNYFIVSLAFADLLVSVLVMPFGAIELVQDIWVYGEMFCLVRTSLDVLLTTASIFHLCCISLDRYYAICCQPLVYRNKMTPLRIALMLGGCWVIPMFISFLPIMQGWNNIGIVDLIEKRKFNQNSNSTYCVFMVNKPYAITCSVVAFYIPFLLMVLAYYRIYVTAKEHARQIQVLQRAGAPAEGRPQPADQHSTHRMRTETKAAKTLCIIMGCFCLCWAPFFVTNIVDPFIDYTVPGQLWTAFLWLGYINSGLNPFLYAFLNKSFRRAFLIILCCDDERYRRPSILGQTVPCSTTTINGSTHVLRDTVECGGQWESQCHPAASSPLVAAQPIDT
Structure (SMILES),target or system,assay,system,conditions,scale,measurement,value
CC1Cc2cc3c(cc2C(c2ccc(N)cc2)=NN1)OCO3 (stereo not shown),Plasmodium falciparum,,GB4,,,IC50,10 µM
O=C1c2c(O)c(=O)ccn2N([C@@H]2c3ccccc3SCc3c2ccc(F)c3F)[C@@H]2COCCN12,,,"BALB/c mice, plasma","oral, 15 mg/kg baloxavir marboxil, 12 h",,plasma concentration,6.85 ng/mL
CC(C)CC(=O)OC[C@H]1O[C@@](C#N)(c2ccc3c(N)ncnn23)[C@H](O)[C@@H]1O,"ABCB1 (Homo sapiens, UniProt P08183)",,Caco-2,"90 µM, 2 h",,Papp A to B,0.208 ×10⁻⁶ cm/s
CC(=O)N1CCC(C(=O)N2CCN3C(=O)c4cc(-c5ccccc5)ccc4NC(=O)C3C2)CC1 (stereo not shown),Salmonella typhimurium,,TA100,"1.58 µg/plate, with: without S9",baseline: vehicle control,revertant fold increase,1.1
COC(=O)[C@@H](NC(=O)c1nn(Cc2ccc(F)cc2)c2ccccc12)C(C)(C)C,central CB1 receptor,,mouse,intraperitoneal,,lowest dose producing hypothermia,0.03 mg/kg
CO[C@H]1C[C@@H]2CC[C@@H](C)[C@@](O)(O2)C(=O)C(=O)N2CCCC[C@H]2C(=O)O[C@H]([C@H](C)C[C@@H]2CC[C@@H](OC(=O)NCCOCCOCCOCCOCCOCCOCCOCCOCCC(=O)N3CCc4cc(Cn5nc(-c6ccc7oc(N)nc7c6)c6c(N)ncnc65)ccc4C3)[C@H](OC)C2)C[C@@H](O)[C@H](C)/C=C(\C)[C@@H](O)[C@@H](OC)C(=O)[C@H](C)C[C@H](C)/C=C/C=C/C=C/1C,,,patients with advanced solid tumours,"intravenous, 12 mg weekly, grade 3 or higher",,anaemia incidence,0%
O=[N+]([O-])c1ccc(N2CCC(NCCC(O)c3ccc(F)c4ccccc34)CC2)c(C(F)(F)F)c1 (stereo not shown),Salmonella typhimurium,SOS/umu test,TA1535/pSK1002,"0.004 mg/mL, 4 h, without S9, lower range",,survival,98.8%
OCc1ncc2n1-c1ccc(Cl)cc1C(c1ccccc1F)=NC2,CYP3A4 (human),,"human, plasma","oral, 2 mg midazolam, Day 1, with: single dose encorafenib and binimetinib",baseline: Day -7,geometric LS mean ratio of AUClast,1.28
CN1CC[C@@H](c2c(O)cc(O)c3c(=O)cc(-c4ccc(C(F)(F)F)cc4Cl)oc23)[C@@H]1CO,,measured: Pneumonia,relapsed B-cell malignancies or AML,"oral, 100 mg, grade 3-4, continuous dosing",,patients with adverse event,12.5%
C[C@H]1CN(c2n[nH]c3nc(N[C@H]4CC[C@H](NS(=O)(=O)CCC(F)(F)F)CC4)ncc23)CCO1,"HSD17B4 (Homo sapiens, UniProt P51659)",biochemical,,,,IC50,≥ 20 µM
C=C(C)[C@@H]1CCC(C)=C[C@H]1c1c(O)cc(CCCCC)cc1O,,,human,"750 mg, trial 17075, with: fluconazole 400 mg",,subjects with Death,0%
O=[N+]([O-])c1ccc(N2CCN(CCC(O)c3ccc(F)cc3)CC2)c(C(F)(F)F)c1 (stereo not shown),Salmonella typhimurium,"SOS response, SOS/umu test","TA1535/pSK1002, TGA medium","0.000244 mg/mL, 4 h, with: 10% rat liver S9",baseline: untreated,induction factor,1
CC1(C)C(C=C(Cl)Cl)C1C(=O)OC(C#N)c1ccc(F)c(Oc2ccccc2)c1 (stereo not shown),human cytosolic CES1,IVIVE from expressed enzymes,"human, 5 years old, expressed human CES1",0.1 µM,baseline: total hepatic CLint in vivo,relative enzyme contribution,37.4%
C=C1C[C@@H]2[C@H](CC[C@]3(C)C(=O)CC[C@@H]23)[C@@]2(C)C=CC(=O)C=C12,"GSTA1 (Homo sapiens, UniProt P08263)","substrate, recombinant enzyme",,"250 µM, 1 h, 37 °C, enzyme 2.5 ng/µL, active if above 3-fold of mock, with: glutathione 5 mM",,glutathione conjugation,active
CN(C)CC[C@@H](c1ccc(Cl)cc1)c1ccccn1,Plasmodium falciparum,,Dd2,,,IC50,6.31 µM
COc1cc2c(Oc3ccc4[nH]c(C)cc4c3F)ccnc2cc1OCC1(N)CC1,,,paediatric recurrent refractory sarcoma,8 mg,,grade 3 weight loss,0%
CC(C)[C@H](C(=O)O[C@H](C#N)c1cccc(Oc2ccccc2)c1)c1ccc(Cl)cc1,human cytosolic CES1,IVIVE from expressed enzymes,"human, 6 months old",,baseline: total hepatic CLint in vivo,relative enzyme contribution,26.8%
CC[C@H](C)[C@H](NC(=O)[C@H](Cc1ccccc1)NC(=O)[C@H](CCC(=O)O)NC(=O)[C@H](CCCNC(=N)N)NC(=O)[C@H](C)NC(=O)[C@H](C)NC(=O)[C@H](CCC(N)=O)NC(=O)[C@H](CCC(=O)O)NC(=O)[C@H](CCC(=O)O)NC(=O)[C@H](CC(C)C)NC(=O)[C@H](Cc1ccc(O)cc1)NC(=O)[C@H](CO)NC(=O)[C@H](CO)NC(=O)[C@@H](NC(=O)[C@H](CC(=O)O)NC(=O)[C@H](CO)NC(=O)[C@@H](NC(=O)[C@H](Cc1ccccc1)NC(=O)[C@@H](NC(=O)CNC(=O)[C@H](CCC(=O)O)NC(=O)[C@H](C)NC(=O)CCc1c[nH]cn1)[C@@H](C)O)[C@@H](C)O)C(C)C)C(=O)N[C@@H](C)C(=O)N[C@@H](Cc1c[nH]c2ccccc12)C(=O)N[C@@H](CC(C)C)C(=O)N[C@H](C(=O)N[C@@H](CCCNC(=N)N)C(=O)NCC(=O)N[C@@H](CCCNC(=N)N)C(=O)N[C@@H](CCCCNC(=O)COCCOCCNC(=O)COCCOCCNC(=O)CC[C@H](NC(=O)CCCCCCCCCCCCCCCCC(=O)O)C(=O)O)C(=O)NCC(=O)NCC(=O)N[C@@H](CO)C(=O)N[C@@H](CCCCNc1c(NCCCCCN(O)C(=O)CCC(=O)NCCCCCN(O)C(=O)CCC(=O)NCCCCCN(O)C(C)=O)c(=O)c1=O)C(=O)O)C(C)C [zirconium-89 labelled],,,"rat, blood","iv, 3 nmol/kg, 24 h, ex vivo",,tissue uptake,0.23 %ID/g
CC1(C)[C@H](C=C(Cl)Cl)[C@H]1C(=O)OCc1cccc(Oc2ccccc2)c1,human cytosolic CES1,IVIVE from expressed enzymes,"human, 5 years old, expressed human CES1",0.1 µM,baseline: total hepatic CLint in vivo,relative enzyme contribution,32.7%
[Cl-].[Cl-].[Pt+2].[Ru+2].c1ccc(-c2nc3cc4ccccc4cc3nc2-c2ccccn2)nc1.c1cnc2c(c1)ccc1cccnc12.c1cnc2c(c1)ccc1cccnc12,Danio rerio,,embryos,"60 µM, 72 h",,hatching rate,20 ± 3.7%
O=C(O)C[C@H](NC(=O)[C@H](CC(=O)O)NC(=O)[C@H](CC(=O)O)NC(=O)[C@H](CC(=O)O)NC(=O)[C@H](CC(=O)O)NC(=O)[C@H](CC(=O)O)NC(=O)[C@H](CC(=O)O)NC(=O)[C@H](CC(=O)O)NC(=O)[C@H](CC(=O)O)NC(=O)[C@H](CC(=O)O)NC(=O)[C@H](CC(=O)O)NC(=O)[C@H](CCCCNC(=O)c1ccc(C(=O)NCCOCCOB2BBBBBB3BBBB3B2)cc1)NC(=O)CN1CCN(CC(=O)O)CCN(CC(=O)O)CCN(CC(=O)O)CC1)C(=O)O [gallium-67 labelled],,,"ddY male mice, spleen","intravenous, 37 kBq, 1 h",,tissue uptake,0.19 %ID/g
CCN(CC)C(=O)[C@@H]1C=C2c3cccc4[nH]cc(c34)C[C@H]2N(C)C1,,,"human, plasma","dose not given, after placebo pretreatment",,Vz/F,35 L
CC(C)[C@@H]1NC(=O)[C@H](Cc2ccccc2)NC(=O)[C@@H]2NC(=O)[C@H](Cc3ccccc3)NC(=O)[C@@H]3CCCN3C(=O)CNC(=O)[C@H](Cc3ccccc3)NC(=O)[C@@H]3CNCCCC[C@@H](C(=O)O)NC(=O)[C@@H]4NC(=O)[C@H](CC(N)=O)NC(=O)CNC(=O)[C@H]([C@@H](O)C(=O)O)NC(=O)[C@H](CSC[C@@H](NC(=O)[C@H](CCC(N)=O)NC(=O)[C@H](CCCCNC(=O)c5ccc(NN)nc5)NC(=O)[C@@H](N)CS[C@H]4C)C(=O)N[C@@H](CS[C@H]2C)C(=O)N3)NC1=O [technetium-99m labelled],,,"rat 45 min ischemia, 2 h reperfusion, remote viable myocardium",2 h,baseline: 2 min post-injection,fractional retention,20.1 ± 4.8%
C=C1CC[C@@]2(O)[C@H]3Cc4ccc(O)c5c4[C@@]2(CCN3CC2CC2)[C@H]1O5,H+/organic cation antiporter,cell uptake,hCMEC/D3,,,intrinsic clearance,8.6 µL/min/mg protein
CCCC[C@H](NC(C)=O)C(=O)N[C@@H](CO)C(=O)N[C@H](C(=O)N1CCC[C@H]1C(=O)N[C@@H](C)C(=O)N[C@@H](CCCNC(=N)N)C(=O)N[C@@H](CCCNC(=N)N)C(=O)N[C@@H](CCCNC(=N)N)C(=O)N[C@@H](CC(C)C)C(=O)N[C@@H](CCCC)C(=O)N[C@@H](CCCNC(=N)N)C(=O)N[C@@H](CC(=O)O)C(=O)N[C@@H](Cc1ccccc1)C(=O)N[C@@H](CCCCN)C(=O)N[C@@H](CCCNC(=N)N)C(=O)N[C@@H](CC(C)C)C(=O)N[C@@H](CCC(N)=O)C(N)=O)[C@@H](C)O,proteinase K,LC-MS,,"25 µM, 102.4 min, pH 7.4",,remaining peptide,1.2%
C#Cc1ccc2c(c1)C(c1ccccn1)=NCc1c(-c3cnco3)ncn1-2.Cl,,shake flask,aqueous buffer,"24 h, pH 2, 25 °C",,solubility,12 mg/mL
O=c1ccc2ccccc2o1,HepG2,measured: cell count,,"concentration not given, 1 h, SRXN1 Nrf2 oxidative stress panel",,probability of response,0%
COc1cccc(-c2n[nH]c(SCc3ccccn3)n2)c1OC,Salmonella typhimurium,"Ames test, plate incorporation",TA1537,"0.13 mg/plate, without S9",,revertant colonies per plate,11
Cc1cc(C(=O)NC(C)(C)COc2cccc3c2C(N)=NS(=O)(=O)N3)cc(C)n1,Escherichia coli,"Ames test, initial",WP2 uvrA,"50.0 µg/plate, with: rat liver S9",baseline: solvent control,revertant ratio,0.7
O=C(Nc1cnccc1Cl)N1CCN(Cc2ccc3c(c2)OC(F)(F)O3)CC1,"HTR4 (Cavia porcellus, UniProt O70528)",radioligand binding,,"50 µM, with: [3H]GR-113808",,inhibition of binding,21%
Nc1ncnc2c([C@@H]3N[C@H](CO)[C@@H](O)[C@H]3O)c[nH]c12,HeLa,,,400 µM,,cell number,1780 and 2740

# For quick reference, copied from above:
Structure (SMILES),target or system,assay,system,conditions,scale,measurement,value
Cc1cc(C(=O)NC(C)(C)COc2cccc3c2C(N)=NS(=O)(=O)N3)cc(C)n1,Escherichia coli,"Ames test, initial",WP2 uvrA,"50.0 µg/plate, with: rat liver S9",baseline: solvent control,revertant ratio,0.7
CN1CC[C@@H](c2c(O)cc(O)c3c(=O)cc(-c4ccc(C(F)(F)F)cc4Cl)oc23)[C@@H]1CO,,measured: Pneumonia,relapsed B-cell malignancies or AML,"oral, 100 mg, grade 3-4, continuous dosing",,patients with adverse event,12.5%
